Published values collected from several papers.
Numbered parts are unrelated; each lists some results of a single study. Changes are numbered by the printed parent chain.
Sequence of UniProt Q13153 (whole entry, looked up): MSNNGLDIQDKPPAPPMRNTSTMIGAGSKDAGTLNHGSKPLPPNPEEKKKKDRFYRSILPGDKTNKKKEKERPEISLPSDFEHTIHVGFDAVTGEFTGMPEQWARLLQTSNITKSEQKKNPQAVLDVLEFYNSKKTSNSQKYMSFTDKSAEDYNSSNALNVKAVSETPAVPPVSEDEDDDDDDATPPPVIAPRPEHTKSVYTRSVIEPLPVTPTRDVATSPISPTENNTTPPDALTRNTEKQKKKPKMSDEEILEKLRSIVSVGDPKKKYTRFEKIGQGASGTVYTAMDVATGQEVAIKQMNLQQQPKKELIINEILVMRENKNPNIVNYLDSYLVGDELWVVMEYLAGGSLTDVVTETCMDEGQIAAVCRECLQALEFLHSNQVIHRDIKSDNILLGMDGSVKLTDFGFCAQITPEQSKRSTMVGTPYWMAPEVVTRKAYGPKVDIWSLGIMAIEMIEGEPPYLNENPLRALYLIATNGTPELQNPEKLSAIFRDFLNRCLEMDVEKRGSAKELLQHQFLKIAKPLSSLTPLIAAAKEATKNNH
Sequence of UniProt Q9HAZ1 (whole entry, looked up): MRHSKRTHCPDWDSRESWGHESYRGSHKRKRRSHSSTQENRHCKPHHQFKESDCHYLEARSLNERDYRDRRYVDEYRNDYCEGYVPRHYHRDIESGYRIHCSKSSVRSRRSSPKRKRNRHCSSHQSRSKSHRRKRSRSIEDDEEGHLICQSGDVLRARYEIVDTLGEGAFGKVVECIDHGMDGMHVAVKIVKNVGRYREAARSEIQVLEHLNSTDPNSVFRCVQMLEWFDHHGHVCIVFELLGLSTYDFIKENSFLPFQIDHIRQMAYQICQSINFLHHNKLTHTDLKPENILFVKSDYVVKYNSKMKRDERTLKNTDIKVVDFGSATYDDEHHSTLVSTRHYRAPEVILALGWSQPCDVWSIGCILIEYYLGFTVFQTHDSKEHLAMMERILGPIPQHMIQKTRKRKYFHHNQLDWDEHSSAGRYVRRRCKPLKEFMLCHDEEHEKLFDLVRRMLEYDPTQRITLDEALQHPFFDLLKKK
Sequence of UniProt Q15759 (whole entry, looked up): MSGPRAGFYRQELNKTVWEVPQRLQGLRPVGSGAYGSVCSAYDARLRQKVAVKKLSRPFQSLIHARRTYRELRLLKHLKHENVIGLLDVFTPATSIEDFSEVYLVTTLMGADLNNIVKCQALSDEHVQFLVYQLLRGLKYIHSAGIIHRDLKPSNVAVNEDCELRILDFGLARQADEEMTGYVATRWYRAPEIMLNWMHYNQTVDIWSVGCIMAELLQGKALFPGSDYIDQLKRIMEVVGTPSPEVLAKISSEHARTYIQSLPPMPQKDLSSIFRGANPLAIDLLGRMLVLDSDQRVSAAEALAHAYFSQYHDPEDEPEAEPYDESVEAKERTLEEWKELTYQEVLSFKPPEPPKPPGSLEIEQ
Sequence of UniProt P42680 (whole entry, looked up): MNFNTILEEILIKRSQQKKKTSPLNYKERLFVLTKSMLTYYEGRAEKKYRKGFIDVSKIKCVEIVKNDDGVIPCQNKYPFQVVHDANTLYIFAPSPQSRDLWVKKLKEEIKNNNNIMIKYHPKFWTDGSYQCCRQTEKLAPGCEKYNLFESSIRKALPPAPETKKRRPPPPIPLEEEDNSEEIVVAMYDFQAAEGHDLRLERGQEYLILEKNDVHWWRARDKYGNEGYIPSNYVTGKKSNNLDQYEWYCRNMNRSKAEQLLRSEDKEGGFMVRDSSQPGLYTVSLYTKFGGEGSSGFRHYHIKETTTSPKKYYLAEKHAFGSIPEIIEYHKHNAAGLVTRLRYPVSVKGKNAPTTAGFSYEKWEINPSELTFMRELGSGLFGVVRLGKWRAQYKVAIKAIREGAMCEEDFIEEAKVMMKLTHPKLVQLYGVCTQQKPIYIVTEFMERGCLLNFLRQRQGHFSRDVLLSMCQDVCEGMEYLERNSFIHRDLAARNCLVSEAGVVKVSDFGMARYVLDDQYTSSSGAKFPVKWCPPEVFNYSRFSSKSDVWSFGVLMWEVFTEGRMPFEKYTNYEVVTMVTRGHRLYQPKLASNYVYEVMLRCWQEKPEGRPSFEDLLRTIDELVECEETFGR
Sequence of UniProt Q9BUB5 (whole entry, looked up): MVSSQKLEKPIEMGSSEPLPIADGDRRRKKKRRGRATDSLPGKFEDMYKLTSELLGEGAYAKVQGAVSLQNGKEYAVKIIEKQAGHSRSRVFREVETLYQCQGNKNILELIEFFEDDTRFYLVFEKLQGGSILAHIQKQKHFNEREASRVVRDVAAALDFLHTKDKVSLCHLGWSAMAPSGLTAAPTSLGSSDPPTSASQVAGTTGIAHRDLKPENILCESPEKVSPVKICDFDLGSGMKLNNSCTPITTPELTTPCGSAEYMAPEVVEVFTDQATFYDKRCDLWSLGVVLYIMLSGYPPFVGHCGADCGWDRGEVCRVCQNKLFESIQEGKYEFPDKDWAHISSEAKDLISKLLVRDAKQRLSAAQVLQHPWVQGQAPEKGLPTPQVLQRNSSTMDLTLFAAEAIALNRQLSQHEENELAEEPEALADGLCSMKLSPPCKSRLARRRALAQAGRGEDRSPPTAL
Sequence of UniProt Q16566 (whole entry, looked up): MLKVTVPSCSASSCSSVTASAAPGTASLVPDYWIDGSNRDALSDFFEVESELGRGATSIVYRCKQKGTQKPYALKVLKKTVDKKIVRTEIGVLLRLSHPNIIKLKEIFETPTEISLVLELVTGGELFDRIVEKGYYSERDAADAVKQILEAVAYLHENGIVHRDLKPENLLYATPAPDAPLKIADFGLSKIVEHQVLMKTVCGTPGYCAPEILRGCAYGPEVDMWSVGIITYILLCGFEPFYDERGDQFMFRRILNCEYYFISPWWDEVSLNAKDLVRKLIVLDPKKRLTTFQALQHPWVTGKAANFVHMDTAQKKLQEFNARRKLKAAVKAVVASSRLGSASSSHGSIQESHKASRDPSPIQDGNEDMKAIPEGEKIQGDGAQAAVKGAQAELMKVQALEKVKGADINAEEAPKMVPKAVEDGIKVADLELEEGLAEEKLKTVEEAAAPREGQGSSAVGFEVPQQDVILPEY
Sequence of UniProt Q8N4C8 (whole entry, looked up): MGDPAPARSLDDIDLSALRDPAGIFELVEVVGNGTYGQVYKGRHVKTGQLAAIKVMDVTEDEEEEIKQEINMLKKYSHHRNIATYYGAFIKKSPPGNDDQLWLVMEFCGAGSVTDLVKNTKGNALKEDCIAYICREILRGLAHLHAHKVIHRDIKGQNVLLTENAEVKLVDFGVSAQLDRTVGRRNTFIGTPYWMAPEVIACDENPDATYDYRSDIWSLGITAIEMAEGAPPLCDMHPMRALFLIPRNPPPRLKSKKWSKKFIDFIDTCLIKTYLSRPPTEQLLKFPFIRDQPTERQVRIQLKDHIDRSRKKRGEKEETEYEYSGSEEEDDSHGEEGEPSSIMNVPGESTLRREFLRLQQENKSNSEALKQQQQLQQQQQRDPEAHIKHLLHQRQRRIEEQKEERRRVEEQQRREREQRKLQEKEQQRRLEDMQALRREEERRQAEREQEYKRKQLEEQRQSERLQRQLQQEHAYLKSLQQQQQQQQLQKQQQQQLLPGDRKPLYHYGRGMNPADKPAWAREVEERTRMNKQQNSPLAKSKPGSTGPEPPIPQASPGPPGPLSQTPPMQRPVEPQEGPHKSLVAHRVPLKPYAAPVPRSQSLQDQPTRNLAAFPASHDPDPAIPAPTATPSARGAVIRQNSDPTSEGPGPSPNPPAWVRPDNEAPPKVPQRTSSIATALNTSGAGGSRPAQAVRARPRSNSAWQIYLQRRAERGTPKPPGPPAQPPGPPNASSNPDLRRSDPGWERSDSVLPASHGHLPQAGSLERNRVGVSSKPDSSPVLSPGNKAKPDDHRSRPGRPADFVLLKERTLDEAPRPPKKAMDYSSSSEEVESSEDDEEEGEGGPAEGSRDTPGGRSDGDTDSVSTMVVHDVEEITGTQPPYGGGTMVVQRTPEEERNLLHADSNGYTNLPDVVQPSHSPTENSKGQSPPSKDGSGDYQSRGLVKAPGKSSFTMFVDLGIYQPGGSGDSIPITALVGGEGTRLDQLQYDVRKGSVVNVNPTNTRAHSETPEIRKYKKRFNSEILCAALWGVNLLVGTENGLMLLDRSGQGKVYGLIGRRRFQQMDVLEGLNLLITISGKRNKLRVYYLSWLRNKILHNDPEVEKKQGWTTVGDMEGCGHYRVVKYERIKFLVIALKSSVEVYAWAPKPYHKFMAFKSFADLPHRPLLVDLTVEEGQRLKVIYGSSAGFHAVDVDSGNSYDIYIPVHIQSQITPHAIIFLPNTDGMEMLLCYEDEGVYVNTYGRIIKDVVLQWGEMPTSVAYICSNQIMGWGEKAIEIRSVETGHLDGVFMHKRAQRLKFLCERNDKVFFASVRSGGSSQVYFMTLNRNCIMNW
Sequence of UniProt Q9H4B4 (whole entry, looked up): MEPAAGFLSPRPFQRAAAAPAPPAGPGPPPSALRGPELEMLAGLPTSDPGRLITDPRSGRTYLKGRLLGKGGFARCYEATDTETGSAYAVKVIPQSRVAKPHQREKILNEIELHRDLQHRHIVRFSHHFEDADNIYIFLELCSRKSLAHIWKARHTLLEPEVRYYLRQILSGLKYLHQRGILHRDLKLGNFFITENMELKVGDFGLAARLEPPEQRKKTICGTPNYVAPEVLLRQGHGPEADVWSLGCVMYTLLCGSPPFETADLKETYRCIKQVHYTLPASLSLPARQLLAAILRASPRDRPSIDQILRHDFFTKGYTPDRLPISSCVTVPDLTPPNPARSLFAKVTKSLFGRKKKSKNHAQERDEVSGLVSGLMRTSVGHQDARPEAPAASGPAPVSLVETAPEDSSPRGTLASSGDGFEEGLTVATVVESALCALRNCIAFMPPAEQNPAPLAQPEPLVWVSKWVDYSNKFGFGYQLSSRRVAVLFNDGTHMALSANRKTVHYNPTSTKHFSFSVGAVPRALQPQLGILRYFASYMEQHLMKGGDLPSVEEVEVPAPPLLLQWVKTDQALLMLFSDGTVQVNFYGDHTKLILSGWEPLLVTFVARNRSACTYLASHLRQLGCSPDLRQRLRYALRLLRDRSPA

Study 1
Target: CCNB1, cyclin fold, Cln2 fusion (human)
Method: yeast growth competition, sequencing
Medium: yeast
Setting: weak parent motif
Baseline: not given
Direction: higher = stronger binding
Measurement: normalised enrichment score
Parent: WEE1 docking peptide (human); HKTFRKLRLFDTP
HKTFRKLPLFDTP [R8P]: -0.0368
HKTFGKLRLFDTP [R5G]: -0.645
HKTFRKHRLFDTP [L7H]: 0.851
HKTRRKLRLFDTP [F4R]: 0.445
HKTFNKLRLFDTP [R5N]: -4.58
HKTFRKLFLFDTP [R8F]: 0.43
HKHFRKLRLFDTP [T3H]: 0.691
HKTFRKLRLVDTP [F10V]: -0.152

Study 2
Target: CEP164, C-terminal peptide (human)
Method: DHFR complementation, deep sequencing
Medium: yeast
Setting: single substitutions, model-inferred values
Baseline: wild type
Direction: higher = weaker binding
Measurement: binding free energy change
Parent: PDZK1, PDZ domain 2 (human); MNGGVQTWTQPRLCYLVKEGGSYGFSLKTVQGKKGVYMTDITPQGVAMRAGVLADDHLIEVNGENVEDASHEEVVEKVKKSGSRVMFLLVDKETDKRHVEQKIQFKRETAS; partner HNRVKVYRF
R49I: 0.407 kcal/mol
M1L: -0.113 kcal/mol
E67P: 1.18 kcal/mol
E76Q: 0.00191 kcal/mol
F87K: 1.77 kcal/mol
A54C: 0.0213 kcal/mol
E19I: 0.339 kcal/mol
A110W: -0.0938 kcal/mol

Study 3
SMILES: O=C(NC[C@@H]1[C@H]2CN(C(=O)OCc3cc(C(F)(F)F)cc(C(F)(F)F)c3)C[C@@H]12)c1ccc2[nH]nnc2c1
Read-out: cell-free assay
Method: competition with immobilised ligand
Tested at: 1 µM
Measurement: remaining binding
ALK (Homo sapiens, UniProt Q9UM73, C1156Y): 94%
IRAK3 (Homo sapiens, UniProt Q9Y616): 84%
LTK (Homo sapiens, UniProt P29376): 98%
FLT3 (Homo sapiens, UniProt P36888, ITD): 83%
PRKG2 (Homo sapiens, UniProt Q13237): 82%
TEC (Homo sapiens, UniProt P42680): 100%
MKNK1 (Homo sapiens, UniProt Q9BUB5): 90%
ROCK2 (Homo sapiens, UniProt O75116): 90%
DCLK2 (Homo sapiens, UniProt Q8N568): 100%
FLT1 (Homo sapiens, UniProt P17948): 82%
PAK1 (Homo sapiens, UniProt Q13153): 100%

Study 4
Structure (SMILES): Ic1cccc(CSc2nnc(-c3ccncc3)o2)c1
Read-out: enzyme activity
Mode: inhibitor
Tested at: 0.5 µM
Baseline: control
Measurement: remaining activity
NEK3 (Homo sapiens, UniProt P51956): 86.9%
GRK4 (Homo sapiens, UniProt P32298): 99.8%
CDC42BPB (Homo sapiens, UniProt Q9Y5S2): 96.6%
CAMK4 (Homo sapiens, UniProt Q16566): 91.6%
MAPK11 (Homo sapiens, UniProt Q15759): 96.9%
PAK3 (Homo sapiens, UniProt O75914): 92.9%
PLK3 (Homo sapiens, UniProt Q9H4B4): 96.1%
MET (Homo sapiens, UniProt P08581): 88.7%
CLK3 (Homo sapiens, UniProt P49761): 76.3%
CLK4 (Homo sapiens, UniProt Q9HAZ1): 90%
MINK1 (Homo sapiens, UniProt Q8N4C8): 90.2%
AKT2 (Homo sapiens, UniProt P31751): 101%

Some of these lines once more (study 3):
ALK (Homo sapiens, UniProt Q9UM73, C1156Y): 94%
FLT3 (Homo sapiens, UniProt P36888, ITD): 83%
DCLK2 (Homo sapiens, UniProt Q8N568): 100%
